# Measurements from different studies.
# Parts stem from different laboratories: compare values within a part only. Substitutions count along the parent as printed.

# Study 1 — method: protein-binding microarray; molecule type: double-stranded DNA, one strand shown; sample: in vitro; tested at: 2540 nM top; notes: 60-bp whole probe; with: salmon DNA 0.4 mg/ml; relative to: random background probes; reading: higher = stronger binding; shared flanks, not repeated: GCCTAGCAC … GTCTTGATTCGCTTGACGCTGCTG
# Target: Interferon regulatory factor 3, full length, phosphomimetic (IRF3, Homo sapiens, UniProt Q14653, residues 1-427, S386D/S396D/S398D/S402D/T404D/S405D)
# Residues (chain): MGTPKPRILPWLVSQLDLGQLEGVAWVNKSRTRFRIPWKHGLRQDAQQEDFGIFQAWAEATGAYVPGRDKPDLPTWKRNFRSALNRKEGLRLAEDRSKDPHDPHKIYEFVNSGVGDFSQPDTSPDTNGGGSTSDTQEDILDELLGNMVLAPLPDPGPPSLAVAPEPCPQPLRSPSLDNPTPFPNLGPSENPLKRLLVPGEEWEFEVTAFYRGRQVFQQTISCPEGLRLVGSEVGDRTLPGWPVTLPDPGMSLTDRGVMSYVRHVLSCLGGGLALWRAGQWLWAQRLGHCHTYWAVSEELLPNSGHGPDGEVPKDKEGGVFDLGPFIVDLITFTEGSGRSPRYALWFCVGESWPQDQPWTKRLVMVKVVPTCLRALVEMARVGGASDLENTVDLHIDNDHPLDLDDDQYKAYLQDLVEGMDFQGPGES
Strand,fitted relative affinity
TTAGGACTGGACACTGGGTAAGTGCTA,-0.542 z-score
TTAGGTTACGGACTGGGTTAGTGCTAG,0.115 z-score
TTAGGACTTGGGTATCGGTTAGTGCTA,0.178 z-score
GACGGTATCGAATATCGGGACGTGCTA,1.16 z-score
ATGGCTTTGCCTTTTGCTTTGTGCTAG,-0.194 z-score
TTTGATCTCAGTCTCGATTAGTGCTAG,0.722 z-score
TGGGAAATTCCTCTGAATAGGTGCTAG,0.314 z-score
TCATTTTTCAAGAAACAGACTGTGCTA,1.35 z-score
TTAGGACTCGGACTGGGTTAGTGCTAG,-0.781 z-score

# Study 2 — method: RNA Bind-n-Seq; molecule type: RNA; sample: in vitro; tested at: not given; relative to: input RNA pool; reading: higher = stronger binding
# Target: RING finger protein unkempt homolog, zinc fingers 1-6, GST-SBP tag (UNK, Homo sapiens, UniProt Q9C0B0, residues 30-357)
# Notes: RNA with constant flanks, human-mouse chimeric sites, ends assumed
# Shared flanks, not repeated: GGGAGUUCUACAGUCCGACGAUC … CAACAGAGGAUUGAGCAUCA
# Target sequence (chain): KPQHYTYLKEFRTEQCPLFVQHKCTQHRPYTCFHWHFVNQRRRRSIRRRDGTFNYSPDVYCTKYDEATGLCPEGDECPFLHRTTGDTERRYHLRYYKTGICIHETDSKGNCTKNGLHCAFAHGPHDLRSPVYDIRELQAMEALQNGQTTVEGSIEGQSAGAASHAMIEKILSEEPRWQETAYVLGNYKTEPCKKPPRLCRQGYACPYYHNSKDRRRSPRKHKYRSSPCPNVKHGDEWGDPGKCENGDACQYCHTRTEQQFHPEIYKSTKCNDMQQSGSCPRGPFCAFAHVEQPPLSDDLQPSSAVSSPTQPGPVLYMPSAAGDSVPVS
Strand,bound/input enrichment [ratio]
GGAUUCCGCUUCCGGUUCCGUUGGGCUCGGUUCUCUCCUGAGCUACGUGUCUCUACGCUCUCAAUCCGCCAUCCAACGGCAGUCAUGCAGGUAAUGCAGUUUGUGGAGCCCAGCCGGCAG,0.0504
GUAUACGGUUAUCGAGGAAAGGACUGUAGAGCGAAUGUAUACCUGCUUCCCACAGGGAAAAUAGUUUAUUUUAUCGCAUCAGUAGUAGUCCUGUUUAAUUAUGAGGAGAGGACUCAGCGA,15.3
UACAUCACCAAUGUCCUACAAAAUCCUGAUUUGGCUCUGAGAAUGGCUGUGCGGAACAACUUAGCUGGUGCUGAAGAACUCUUUGCCCGGAAAUUUAAUGCUCUCUUCGCCCAGGGAAAC,0.388
UGACAAGGGCACUGCAGGGCCAUGCCUUUCUUGGACAUACAGAAAAAGCUGGGCAUCAGCCUGGACCGGCACUUUAUGUUCCUAAGCGCAGAACAGCCCUAUAAGAACGCCGCUCGGUGC,0.0557
UGUAGUUUCUUGAUUUAGUGGCUGGGCCUUUUCUUUCAGAUCGUCAGGAAAAGCCUAAAGAUUAGGUUGUAAGAAAAACAGAAGCCAUGUUUCGAAGACCUGUGUUACAGGUAUUUCGUC,0.385
UCUUAACGUCCAUUUAAAACUUAUUUUUAUAGCUAGAUAAAUAUUGUUAGUCUUAGAGAGUAGUUCACAUUUUUUGAGAAGCAUGCCCUCCCUGUCCAUUUGUCUUAUAACAUGACCCAG,28
ACACAAUAUGAGACCAACAGCAUGGACUUCAAAGUUGGGGCGGAUGGGACAGUCUUCGCCACCCGGGAGCUGCAGGUCCCCUCCGAGCAGGUGGCGUUCACGGUGACUGCAUGGGACAGC,0.489
ACCAUUUUCGCGGUUCAGGCUUUGUGUUGUAUUUACUUACGGUAUUAAAUUAUUAUUCUGCUUAGCUUAUAAUAAGGAUAAUUGCAUUUAAAGAGGUGAUCACUGAAUACUCUGAAACUU,0.46

# Study 3 — target: CCNA2, cyclin fold, Cln2 fusion (human); method: yeast growth competition, sequencing; sample: yeast; notes: strong parent motif; relative to: not given; reading: higher = stronger binding
# Starting sequence: CUX1 docking peptide (human); SRIRRELFIEEIQ
Substitution,normalised enrichment score
S1A,4.34
E11A,2.97
L7A,0.82
R5K,3.04
R4A,2.44
F8A,0.871
R2A,2.29

# Single results of other studies
Molecule,target,test,test system,setting,how to read,endpoint,value
"PhoQ, residues 284 288 289 292 302 303 TYGVAM","PhoP, residues 12 14 15 18 19 NQCAL (Escherichia coli, UniProt P23836)","Sort-seq, measured: YFP reporter",E. coli,"PhoQ-PhoP variant library, with: 10 µM Mg2+","relative to: high Mg2+ state, higher = stronger signaling",fold induction,20.3

# Repeated from above (study 3):
Substitution,normalised enrichment score
S1A,4.34
